Published values collected from several papers.
Parts stem from different laboratories: compare values within a part only. Positions count from the first letter of the parent shown.

Study 1 — technique: RNA Bind-n-Seq; form: RNA; sample: in vitro; tested at: 1 µM; setting: whole 134-nt RNA, ends assumed; together with: 150 mM KCl; reference: input library; direction: higher = stronger binding
Target: Ras GTPase-activating protein-binding protein 1, C-terminal RGG region (G3BP1, Homo sapiens, UniProt Q13283)
Sequence of UniProt Q13283 (whole entry, looked up): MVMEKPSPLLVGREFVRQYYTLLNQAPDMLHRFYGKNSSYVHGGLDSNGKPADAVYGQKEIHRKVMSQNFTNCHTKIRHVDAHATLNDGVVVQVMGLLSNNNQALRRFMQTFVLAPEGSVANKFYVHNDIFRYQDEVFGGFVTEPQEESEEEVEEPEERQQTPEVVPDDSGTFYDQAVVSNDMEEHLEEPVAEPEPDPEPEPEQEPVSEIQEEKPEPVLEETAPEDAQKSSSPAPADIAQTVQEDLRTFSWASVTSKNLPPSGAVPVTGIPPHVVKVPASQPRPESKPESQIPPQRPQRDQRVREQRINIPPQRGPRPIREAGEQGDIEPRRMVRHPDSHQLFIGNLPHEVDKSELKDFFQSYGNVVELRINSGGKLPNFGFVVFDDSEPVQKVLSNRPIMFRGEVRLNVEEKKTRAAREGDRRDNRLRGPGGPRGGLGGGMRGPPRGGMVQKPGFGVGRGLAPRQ
Shared flanks, not repeated: GGGAGUUCUACAGUCCGACGAUC … UGGAAUUCUCGGGUGUCAAGG
Strand | log2 enrichment
CCUGUGCUACACAUCGUAUGUACCGAAUCAAAUUUUUAAACCCCCCCAAAUUUUUUUAAAAAAGUAUUAUGUUACGCCGUUCGGAUCUGC | -0.724
AAGUCCUGUGCUACACAUCGUAUGUACCGAAUCGGGUUUUUGGGAGGGUUUUUGGGAAAGUAUUAUGUUACGCCGUUCGGAUCUGCACUU | 0.896
UCCUGUGCUACACAUCGUAUGUACCGAAUCGGGUUUUUGGGGUUUUUGGGUUUUUGGGGAAAGUAUUAUGUUACGCCGUUCGGAUCUGCA | 0.44
CUCAAGUCCUGUGCUACACAUCGUAUGUACCGAAUCGGCCGGGCCGGGCCGGGGAAAGUAUUAUGUUACGCCGUUCGGAUCUGCACUUCC | -1.28
GUCCUGUGCUACACAUCGUAUGUACCGAAUCGGGGAAAGGGGAGGGGAAAAAAAGGGGAAAGUAUUAUGUUACGCCGUUCGGAUCUGCAC | 1.46
CCUGUGCUACACAUCGUAUGUACCGAAUCGGGCCCCCCGGGCCCCCCGGGGCCCCCCGGGGAAAGUAUUAUGUUACGCCGUUCGGAUCUG | -2.11
CCUCAAGUCCUGUGCUACACAUCGUAUGUACCGAAUCGGUUUGGAGGAAAGGAAAGUAUUAUGUUACGCCGUUCGGAUCUGCACUUCCAG | -0.766
CACAGACAACACGCACACACACAGACACAGAGGGAAGGGGUUGGGAUGGGGACAGGGUGCACAGCAGGGCGGGGUAGGACCCCAGCCCCU | 0.415
UGGGAGGUGGAUUUUGUUUAUUCUUUUAGCUCAUUUCCAGGGGUGGGAAUUUUUUUUUAAUAUGUGUCAUGAAUAAAGUUGUUUUUGAAA | 3.23
CCUCAAGUCCUGUGCUACACAUCGUAUGUACCGAAUCGUGUGUGUGUGUGUGUAAAGUAUUAUGUUACGCCGUUCGGAUCUGCACUUCCA | 0.282
UCAAGUCCUGUGCUACACAUCGUAUGUACCGAAUCGGGGAAGGGAAGGGGAAGGAAAGUAUUAUGUUACGCCGUUCGGAUCUGCACUUCC | -0.546
UGCCCAGCUCAUGCUGGACCACCUGAAGAACAGUGCUCCCAGCAAGCGAGAGAUUGCCCAGCUCAAGAACCAGGUAUCCACAGAGAGCAC | -1.72
UGGGAGGUGGAUUUUGUUUAUUUUUUUAGCUCAUUUCCAGGGGUGGGAAUUUUUUUUUAAUAUGUGUCAUGAAUAAAGUUAUUUUUGAAA | 3.33
UCCUGUGCUACACAUCGUAUGUACCGAAUCGGGUUUUUUGGGUUUUUUGGUUUUUUGGGAAAGUAUUAUGUUACGCCGUUCGGAUCUGCA | -0.629

Study 2 — target: CCNB3, cyclin fold, Cln2 fusion (human); technique: yeast growth competition, sequencing; sample: yeast; setting: weak parent motif; reference: not given; direction: higher = stronger binding
Parent: CDC25A docking peptide (human); PPHRRRLLFACSP; partner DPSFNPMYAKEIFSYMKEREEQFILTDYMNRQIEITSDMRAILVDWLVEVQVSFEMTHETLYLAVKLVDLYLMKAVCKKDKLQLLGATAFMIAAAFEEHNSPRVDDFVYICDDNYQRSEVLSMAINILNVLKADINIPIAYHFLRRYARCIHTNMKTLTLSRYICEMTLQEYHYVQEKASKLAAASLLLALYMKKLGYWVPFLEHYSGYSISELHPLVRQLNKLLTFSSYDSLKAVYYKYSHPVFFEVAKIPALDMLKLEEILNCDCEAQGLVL
Variant | normalised enrichment score
L8W | 0.369
P13T | 0.479
H3W | 0.256
A10F | 0.46
F9G | 0.372
R6D | -0.09
P13Q | 0.295
F9V | 0.242
R4L | 0.544
P1V | 0.0206
S12E | 0.553
R4W | 0.174
S12M | 0.228
P2F | 0.331
P1E | 0.244
P13C | 0.413
P2I | 0.109
P1H | 0.344

Study 3 — technique: universal PBM; form: double-stranded DNA, one strand shown; sample: in vitro; tested at: not given; direction: higher = stronger binding
Target: Sal-like protein 4, full length isoform B (SALL4, Homo sapiens, UniProt Q9UJQ4-2, residues 1-616)
Setting: 8-mer, flanks averaged, mean of replicates
Target sequence (chain): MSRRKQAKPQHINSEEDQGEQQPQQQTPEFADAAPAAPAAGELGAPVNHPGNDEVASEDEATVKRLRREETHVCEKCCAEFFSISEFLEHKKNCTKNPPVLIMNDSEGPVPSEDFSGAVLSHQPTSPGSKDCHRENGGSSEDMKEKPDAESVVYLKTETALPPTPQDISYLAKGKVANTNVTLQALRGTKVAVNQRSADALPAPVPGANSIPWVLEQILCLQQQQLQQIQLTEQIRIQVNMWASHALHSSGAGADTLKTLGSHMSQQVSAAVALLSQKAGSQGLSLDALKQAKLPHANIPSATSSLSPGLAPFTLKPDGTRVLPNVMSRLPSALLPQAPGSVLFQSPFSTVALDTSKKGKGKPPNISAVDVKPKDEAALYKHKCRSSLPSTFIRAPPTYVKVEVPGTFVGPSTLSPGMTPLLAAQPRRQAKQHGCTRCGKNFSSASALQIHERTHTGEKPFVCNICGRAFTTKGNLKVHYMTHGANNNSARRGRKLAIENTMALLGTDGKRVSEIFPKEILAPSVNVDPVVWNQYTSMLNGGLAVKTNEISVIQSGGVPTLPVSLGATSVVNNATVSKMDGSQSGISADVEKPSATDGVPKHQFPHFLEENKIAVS
Strand | E-score
ATCGAACA | 0.0639
ATGACCGA | 0.124
TTCAGCAA | 0.124
AAGGTCAC | -0.127
ATGGAGGC | -0.0465
ACTGAAGG | -0.0852
GCTCAGAA | -0.128
CCTATTAC | 0.205
AAATATTT | 0.465
TCACTAGA | 0.118
GATCGCGC | -0.237
GTCTACAA | 0.0298
GACTTTCA | 0.0533
CTACCGGA | -0.268
GAGTTGGA | -0.0422
GATAAAAC | 0.248
CGGAGTGA | -0.162
AAAGGGTC | -0.0367
CCATGGTC | -0.265
TGGTACAA | 0.119
AAAATTTT | 0.342
GAGCTGCC | -0.344
CTAGTTAC | -0.0719
CTACGTAA | 0.13
GATTAGAA | 0.111

Study 4 — technique: aptamer microarray, sandwich; form: DNA with 2'F-ANA; sample: in vitro; tested at: 200 nM; together with: Cy3 exosite-II aptamer, 400 nM; direction: higher = stronger binding; strand: GGTTGGTGTGGTTGG
Target: Prothrombin, mature alpha-thrombin (F2, Homo sapiens, UniProt P00734)
Setting: whole 15-mer aptamer, many near background
Modification | mean fluorescence intensity [a.u.]
2'F-ANA at 1 2 4 8 9 11 12 13 14 | 64.3
2'F-ANA at 1 4 6 8 9 12 14 | 57.2
2'F-ANA at 1 3 7 10 13 15 | 79.5
2'F-ANA at 2 4 9 11 14 15 | 82.5
2'F-ANA at 2 3 4 5 6 8 9 11 15 | 76
2'F-ANA at 2 3 9 12 13 14 | 400
2'F-ANA at 2 3 4 6 12 13 14 | 261
2'F-ANA at 3 4 5 6 14 | 65.4
2'F-ANA at 1 3 5 11 12 14 | 51.4
2'F-ANA at 2 3 5 6 9 10 11 14 | 55.7
2'F-ANA at 2 3 5 6 8 9 11 14 15 | 55.3
2'F-ANA at 2 3 12 14 | 451
2'F-ANA at 2 3 6 7 8 9 14 15 | 364
2'F-ANA at 1 2 4 6 9 10 12 | 58.3
2'F-ANA at 1 3 4 6 8 9 11 12 14 | 73.1
2'F-ANA at 1 2 3 6 7 12 13 15 | 339
2'F-ANA at 2 4 6 7 9 10 11 12 14 | 72.5
2'F-ANA at 2 5 10 12 14 | 46.7
2'F-ANA at 2 3 4 5 7 10 | 73
2'F-ANA at 1 2 4 5 6 9 15 | 57.5
2'F-ANA at 2 4 6 7 9 10 13 | 108
2'F-ANA at 1 3 5 6 7 11 12 13 15 | 81.2
2'F-ANA at 1 2 6 9 10 11 12 13 | 59.6
2'F-ANA at 3 4 5 8 10 11 12 15 | 56.2
2'F-ANA at 1 2 3 4 5 7 9 10 11 12 13 14 15 | 70.5

Study 5 — technique: RNA Bind-n-Seq; form: RNA; sample: in vitro; tested at: 20 nM; setting: 6-mer, flanks averaged, single round; together with: 150 mM LiCl; reference: input library; direction: higher = stronger binding
Target: TAR DNA-binding protein 43, full length, His tag (TARDBP, Homo sapiens, UniProt Q13148, residues 1-414)
Strand | 6-mer enrichment (R)
AUCUCC | 0.918
GAAGUG | 1.21
GUUCGU | 1.03
AAGGCA | 0.851
ACCAAC | 0.85
AGGAUC | 0.865
AAUGCU | 0.912
GGGCUC | 0.991
AGAAAA | 0.843
AGCGUC | 0.879
UCGCAC | 0.837
UUGGAG | 1.11
CGAGCC | 0.887
AGACGA | 0.831
CUAUUU | 1.11
GUACAC | 0.893
CACGCG | 0.889
UGGAGC | 1.04
GCCGGC | 0.992

Study 6 — technique: protein binding microarray; form: double-stranded DNA, one strand shown; sample: in vitro; tested at: not given; reference: not given; direction: higher = stronger binding
Target: Histone acetyltransferase KAT6A, both winged helices, GST fusion (KAT6A, Homo sapiens, UniProt Q92794, residues 1-181)
Setting: 8-mer, flanks averaged, mean of 2 arrays, mostly near background
Target sequence (chain): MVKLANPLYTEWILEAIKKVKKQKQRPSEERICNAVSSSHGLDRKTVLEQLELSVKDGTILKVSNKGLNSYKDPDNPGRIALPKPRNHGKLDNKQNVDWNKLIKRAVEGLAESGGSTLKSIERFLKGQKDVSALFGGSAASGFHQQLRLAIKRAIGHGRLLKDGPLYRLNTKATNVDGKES
Strand | E-score
CGTTACAA | 0.0428
CCAGATAA | -0.115
CTCTCATC | -0.23
GACAGCAC | 0.00056
ATACAGGG | 0.0211
CATCTTCG | 0.0179
GCCATATA | 0.0551
ATCGCTGC | 0.141
ATCTAGAT | -0.155
GACGTTCC | 0.0325
GTTGGGGA | -0.143
CCCTACAC | -0.13
CACTAGCG | 0.104
AACTTGCA | -0.128
ATGGGGCA | -0.202
GCTGTTGA | 0.0582
CAGCAGAA | -0.0151
ATTGCGTC | 0.144
GGATCACA | 0.014
